Experimental data gathered from unrelated publications.
Numbers after ± are the reported error.

SMILES	test	system	conditions	logD
CN1C(C(=O)Nc2ccccn2)=C(O)c2sc(Cl)cc2S1(=O)=O	miniaturised shake-flask	1-octanol/water		1.1
COc1cc2[nH]c(C)c(-c3ccc(C(C)C)cc3)c(=O)c2cc1Cl	chromatographic		pH 7.4	3.6
C[C@@H](NC(=O)c1ccccc1CCC(=O)NNC(=O)/C=C/C(=O)OC1CCCCC1)c1cccc2ccccc12				4.8
CN1C(C(=O)Nc2ccccn2)=C(O)c2ccccc2S1(=O)=O	miniaturised shake-flask	1-octanol/water		0.5
c1ccc(-c2ccc([C@H]3COC[C@@H](c4ccc(-n5cncn5)cc4)N3)cc2)cc1	shake-flask, 1-octanol/buffer		pH 7.4	> 4.7
COc1cc2[nH]c(C)c(-c3ccc(C(F)(F)F)cc3)c(=O)c2cc1Cl	chromatographic		pH 7.4	2.4
CC1(CNC(=O)[C@H](CN)NC(=O)c2ccc(-c3ccc(Br)cc3)cc2)NC(=O)NC1=O (stereo partly shown)		octanol/buffer	pH 7.4	1.88
CCOC(=O)N1C[C@@H](c2ccc(Cl)cc2)N[C@@H](c2ccc(-c3ccccc3)cc2)C1	shake-flask, 1-octanol/buffer		pH 7.4	> 4.7
O=c1[nH]c(=S)n(C[C@H]2CCCO2)c2nc[nH]c12				0.4
C[C@@H](NC(=O)c1ccccc1CCC(=O)NNC(=O)/C=C/C(=O)OCc1ncccn1)c1cccc2ccccc12				2.8
CCn1c(SCC(=O)Nc2ccccc2OC)nnc1-c1ccco1		octanol/buffer	pH 7.4	2.47
COc1cc2[nH]c(C)c(-c3ccc(OC(C)C)cc3)c(=O)c2cc1Cl	chromatographic		pH 7.4	3.3
CC(C)C[C@@H](NC(=O)[C@H](C)NC(=O)CNC(=O)[C@@H](NC=O)C(C)C)C(=O)N[C@@H](C)C(=O)N[C@@H](C(=O)N[C@H](C(=O)N[C@@H](C(=O)N[C@@H](Cc1c[nH]c2ccccc12)C(=O)N[C@H](CC(C)C)C(=O)N[C@@H](Cc1c[nH]c2ccccc12)C(=O)N[C@H](CC(C)C)C(=O)N[C@@H](Cc1c[nH]c2ccccc12)C(=O)N[C@@H](C(=O)N[C@@H](Cc1c[nH]c2ccccc12)C(=O)NCCO)C(C)C)[C@H](C)O)C(C)C)C(C)C	UHPLC retention on C18			4.31
CC(=O)Nc1ccc(S(=O)(=O)Nc2c(C)nn(-c3ccccc3)c2C)cc1		octanol/buffer	pH 7.4	2.55
COc1ccc(C(=O)N2CCCCC2)cc1	shake-flask	1-octanol/water		1.89
COc1cc2[nH]c(C)c(-c3cccnc3)c(=O)c2cc1Cl	chromatographic		pH 7.4	4.1
O=C(O)c1cc(-c2ccc(-n3ccnn3)cc2)cc(-n2cc(-c3ccc(C(F)(F)F)cc3)nn2)c1	HPLC retention		pH 7.4, chromatographic logD	0.038 ± 0.013
Cc1ccc([C@@H]2COC[C@H](c3cc(Cl)cc(Cl)c3)N2)cc1	shake-flask, 1-octanol/buffer		pH 7.4	> 4.7
C[C@H]1CN(c2cccc(-c3ccc4ncnc(Nc5ncco5)c4c3)c2)CCO1	shake flask	1-octanol/phosphate buffer	pH 7.4	> 4.3
COc1ccccc1NC(=O)CSc1nncn1C		octanol/buffer	pH 7.4	0.65
COc1ccc([C@@H]2COC[C@H](c3ccc(C(C)(C)C)cc3)N2)cc1	shake-flask, 1-octanol/buffer		pH 7.4	> 4.7
c1cc(-c2ccc3ncnc(Nc4ncco4)c3c2)cc(N2CC3(COC3)C2)c1	shake flask	1-octanol/phosphate buffer	pH 7.4	> 4
CCc1ccccc1NC(=O)CSc1nnc(-c2cccc(OC)c2)n1C		octanol/buffer	pH 7.4	2.76
CCCCc1nc2c(N)nc3ccccc3c2n1Cc1ccc(N)cc1	shake-flask LC-MS/MS	octanol/PBS	pH 7.4, room temperature	2.61
CCn1cc(C(=O)O)c(=O)c2ccc(C)nc21	miniaturised shake-flask	1-octanol/water		0.1
Cc1cc(Nc2ccc3c(c2)CCCC3)n2ccnc2n1				4

SMILES	test	system	conditions	logD
C[C@@H](NC(=O)c1ccccc1CCC(=O)NNC(=O)/C=C/C(=O)N(C)C)c1cccc2ccccc12				3
O=C(O)c1cc(-c2ccc(-c3ccncc3)cc2)c2ccc(-c3ccc(C(F)(F)F)cc3)cc2c1	HPLC retention		pH 7.4	1.18
CNC(=O)/C=C/C(=O)NNC(=O)CCc1ccccc1C(=O)N[C@H](C)c1cccc2ccccc12				2.5
CC1(C)OC[C@H](c2ccc3ccccc3c2)N[C@@H]1c1cccc(F)c1	shake-flask, 1-octanol/buffer		pH 7.4	> 4.7
O=C(O)CNC(=O)c1ncc(-c2ccc(Cl)cc2)cc1O	miniaturised shake-flask	1-octanol/water		0.3
COc1cc(OC)c(NC(=O)CSc2nnc(-c3ccccc3)n2C)cc1Cl		octanol/buffer	pH 7.4	2.95
O=C(CCCCCCC(=O)Nc1ccccc1)NO		n-octanol/PBS	4 h, pH 7.4, 25 °C	1.2
CC1(C)OC[C@@H](c2ccc(C(F)(F)F)cc2)N[C@@H]1c1ccc(Cl)c(Cl)c1	shake-flask, 1-octanol/buffer		pH 7.4	> 4.7
COc1cc2[nH]c(C)c(-c3cccc(CO)c3)c(=O)c2cc1Cl	chromatographic		pH 7.4	3.5
O=C1CCC(c2ccc(OCC(=O)OCCCCc3cn(CCCCCCN4CCc5c(c6ccccc6n5Cc5ccc(C(=O)NO)cc5)C4)nn3)cc2)C(=O)N1 (stereo not shown)	HPLC-based method		pH 7.4	2.2
CCC(CC)[C@@H]1COC[C@]2(CC[C@H](c3ccccc3)CC2)N1	shake-flask, 1-octanol/buffer		pH 7.4	> 4.7
Cc1ccc2ccc(C(=O)O)c(O)c2n1	miniaturised shake-flask	1-octanol/water		-0.3
CC[N+]1(C)CCN(c2ccc(NC(=O)c3cccc(C)n3)cc2)CC1			pH 7.4	-0.3
COc1ccc(C(=O)CSc2nnc(-c3ccc(OC)c(OC)c3)n2-c2ccccc2)cc1		octanol/buffer	pH 7.4	3.72
CN(CCCCCCNC(=O)COc1ccc(C2CCC(=O)NC2=O)cc1)Cc1cn(Cc2ccc(C(=O)NO)cc2)c2ccccc12 (stereo not shown)	HPLC-based method		pH 7.4	1.2
COc1ccc(-c2nnc(SCC(=O)Nc3c(F)cc(F)cc3Br)n2C)cc1		octanol/buffer	pH 7.4	2.75
COc1cc2[nH]c(C)c(-c3ccc(N4CCN(C)CC4)nc3)c(=O)c2cc1Cl	chromatographic		pH 7.4	1.9
Cc1ccc(N(C)c2ccc(NC(=O)CN(C)c3cc(F)ccc3N3CCCC3=O)cc2)cc1	shake-flask			5
COC(=O)/C=C/C(=O)NNC(=O)CCc1ccccc1C(=O)N[C@H](C)c1cccc(-c2cc3ccccc3o2)c1				4
CCc1c(C)[nH]c2cc(OC)c(Cl)cc2c1=O	chromatographic		pH 7.4	2.4
O=S(=O)(c1ccc(F)cc1)N1CCNCC1COc1ccc2c(c1)OCO2 (stereo not shown)	experimental partition		pH 7.4	2.29 ± 0.02
Cc1nnc(C(=O)NC(C)(C)c2nc(C(=O)NCc3ccc(F)cc3)c(O)c(=O)n2C)o1	miniaturised shake-flask	1-octanol/water		1
COc1cccnc1-c1nc2ccccn2c1N(C)c1ccc(F)cc1			pH 7.4	3.6
COc1cc2[nH]c(C)c(-c3ccc(F)cc3F)c(=O)c2cc1Cl	chromatographic		pH 7.4	2.6
Cc1ccc([C@H]2N[C@@H](c3ccc(C(C)(C)C)cc3)CO[C@@H]2C)cc1	shake-flask, 1-octanol/buffer		pH 7.4	> 4.7
CC(C)N(c1ccc(Cl)c(F)c1)c1ccc(NC(=O)CN(C)c2ccccc2N2CCCC2=O)cn1	shake-flask			5

A few entries again:
SMILES	test	system	conditions	logD
CCCCc1nc2c(N)nc3ccccc3c2n1Cc1ccc(N)cc1	shake-flask LC-MS/MS	octanol/PBS	pH 7.4, room temperature	2.61
COc1ccc(C(=O)N2CCCCC2)cc1	shake-flask	1-octanol/water		1.89
O=C(CCCCCCC(=O)Nc1ccccc1)NO		n-octanol/PBS	4 h, pH 7.4, 25 °C	1.2
CC1(CNC(=O)[C@H](CN)NC(=O)c2ccc(-c3ccc(Br)cc3)cc2)NC(=O)NC1=O (stereo partly shown)		octanol/buffer	pH 7.4	1.88
COc1cc2[nH]c(C)c(-c3cccnc3)c(=O)c2cc1Cl	chromatographic		pH 7.4	4.1
O=S(=O)(c1ccc(F)cc1)N1CCNCC1COc1ccc2c(c1)OCO2 (stereo not shown)	experimental partition		pH 7.4	2.29 ± 0.02
CCn1c(SCC(=O)Nc2ccccc2OC)nnc1-c1ccco1		octanol/buffer	pH 7.4	2.47
